Experimental data from different studies.
Parts stem from different laboratories: compare values within a part only.

Series 1 — method: RNA Bind-n-Seq; form: RNA; sample: in vitro; concentration: not given; baseline: input RNA pool; direction: higher = stronger binding
Target: RING finger protein unkempt homolog, zinc fingers 1-6, GST-SBP tag (UNK, Homo sapiens, UniProt Q9C0B0, residues 30-357)
Setting: RNA with constant flanks, human-mouse chimeric sites, ends assumed
Shared flanks, not repeated: GGGAGUUCUACAGUCCGACGAUC … CAACAGAGGAUUGAGCAUCA
Construct (chain): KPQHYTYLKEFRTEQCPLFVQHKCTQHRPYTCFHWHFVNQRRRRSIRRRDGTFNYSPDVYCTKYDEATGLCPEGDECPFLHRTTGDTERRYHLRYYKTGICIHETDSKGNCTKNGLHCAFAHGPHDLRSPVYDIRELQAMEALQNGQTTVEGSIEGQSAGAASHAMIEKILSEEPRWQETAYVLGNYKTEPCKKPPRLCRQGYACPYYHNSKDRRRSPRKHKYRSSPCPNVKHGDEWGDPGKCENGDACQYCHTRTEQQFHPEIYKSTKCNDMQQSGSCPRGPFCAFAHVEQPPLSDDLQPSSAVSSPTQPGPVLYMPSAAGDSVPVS
`UAAGUCCUGUGCCAGCACUUCGCUCAUAAAGUUUUAAAUUCAAGAAAAAUAGUGUUUGUUUCCUGAUUAUUGUAUCCAAUACUUUAUCUAGUAUGUAACUCACUCUUACUGAUAAUAAAA` gave a bound/input enrichment of 2.28 ratio.
With `UCGGAUGAGGUGCUGGGUCACUUUUCAUAUCCAGAUCCUUCACAGUGGACAGAUGAAGAAUUAGGUAUCCCUCCUGAUGACGAGGACUGACACUGUAAACUCUCUGGACGAGUAGGAGCA` the bound/input enrichment was 0.693 ratio.
For `UCCCAAAUCCAGCAGCUAGAAGGAGCCAAUUGUUUGUCACUCCACACACAGGGAAGGCGAUAACAUUGUAAAUUGGUUUACAUUUUUUCCCCCUGUGGAUUUUUCUAGAGGUCAUAGUGC`, the bound/input enrichment was 0.32 ratio.
`GCAUAUGGUUAUCGAGGAAAGGACUGUAGAGCUAAUGUAUACCUGCUUCCCACAGGGGAGAUAGUUUAUUUUAUCGCCUCAGUGGUAGUCCUGUUUAAUUAUGAGGAGAGGACUCAGCGA` has a bound/input enrichment of 0.331 ratio.
For `CACACACUCUUCUGCGGGACCCUCAUCUUGCAGGCCCGGGCCUAUGUGGGACCCCGUGUCCUGGCAGUGGUGACCCGGACAGGGUUCUGCACGGCAAAAGGGGGCCUGGUGAGCUCCAUC`, the bound/input enrichment was 0.0375 ratio.
For `UAAGUCCUGUGCCAGCACUUCGCUCAUAAAGUUUUAAAUUCUGGACCAAUAGUGUUUGUUUCCUGAUUAUUGUAUCCAAUACUUUGCGUACUAUGUGACUCACUCUUACUGAUAAUAAAA`, the bound/input enrichment was 1.11 ratio.
With `CCUGCUCAGAUCACCAUGAAAGUAAUCCAAGGCUUGUACAGUGGGGUCACCACAGUGGAACUGGACACCCUGGCUGCUGAGACAGCCGCGACCUUGACCACGAAGCACCCUGACUAUGCC` the bound/input enrichment was 0.125 ratio.
The bound/input enrichment of `CAGUCCCCGUGUCCCAGGGGACAAUGUUGUGAACAAAAACUCAAAGCGGACCCUCUAUUGUAGUUCUUGAUUCUCGAAAUGUGCUAUUAUUGUUUGUAAAAAAGGAAUUUUUUUUAAAGA` is reported as 0.682 ratio.

Series 2 — method: protein-binding microarray; form: double-stranded DNA, one strand shown; sample: in vitro; concentration: 250 nM; setting: 60-bp whole probe; together with: salmon DNA 0.4 mg/ml; baseline: random background probes; direction: higher = stronger binding; shared flanks, not repeated: GCCTAGCAC … GTCTTGATTCGCTTGACGCTGCTG
Target: Interferon regulatory factor 7, full length, phosphomimetic (IRF7, Homo sapiens, UniProt Q92985, residues 1-503, S101K/S471D/S472D/S475D/S476D/S477D/S483D/S484D/S487D)
Construct (chain): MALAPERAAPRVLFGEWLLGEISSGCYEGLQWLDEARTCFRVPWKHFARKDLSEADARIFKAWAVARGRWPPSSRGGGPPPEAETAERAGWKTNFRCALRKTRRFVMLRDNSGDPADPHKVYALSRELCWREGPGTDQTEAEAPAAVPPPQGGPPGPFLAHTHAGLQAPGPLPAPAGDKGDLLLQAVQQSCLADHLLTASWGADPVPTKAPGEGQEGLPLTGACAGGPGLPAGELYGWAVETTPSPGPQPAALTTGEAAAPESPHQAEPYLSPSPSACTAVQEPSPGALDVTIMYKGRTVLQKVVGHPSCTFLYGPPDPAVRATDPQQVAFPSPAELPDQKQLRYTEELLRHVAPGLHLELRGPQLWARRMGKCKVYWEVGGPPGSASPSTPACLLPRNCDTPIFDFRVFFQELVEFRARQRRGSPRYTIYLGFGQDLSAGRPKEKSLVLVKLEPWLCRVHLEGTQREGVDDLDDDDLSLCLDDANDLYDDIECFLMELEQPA
The log fluorescence of `TGTCTTCCCCTCTCTTTCCAAGTGCTA` is reported as 1.75 z-score.
The log fluorescence of `GACCATTTCAGACTGGAGACGTGCTAG` is reported as 0.856 z-score.
`TCAGATGTGGGACTCACACTGTGCTAG` gave a log fluorescence of -0.28 z-score.
The log fluorescence of `ATGCATTGTTATTTGTCAATGTGCTAG` is reported as 0.531 z-score.
With `TCAATTATTGTTTCCTCACTGTGCTAG` the log fluorescence was 1.3 z-score.
The log fluorescence of `CCTAGGGGCGGGGCCAAATGGTGCTAG` is reported as 1.3 z-score.
With `TCATGAGTCACTTCTGGTACTGTGCTA` the log fluorescence was -0.46 z-score.
The log fluorescence of `AAGACTTTGGTTTGTACACCGTGCTAG` is reported as 0.0808 z-score.
`TTAGAACTGGGTATCGGTTAGTGCTAG` has a log fluorescence of 0.899 z-score.
`GACGGTCTCGGTTTCCGGACGTGCTAG` gave a log fluorescence of 7.52 z-score.
`GACGGACTGGGTCTGGGGACGTGCTAG` gave a log fluorescence of -0.599 z-score.
`CTCACCGCTGGAGTTCTGCGGTGCTAG` has a log fluorescence of -0.653 z-score.
For `GACAGTTTCGGTTTCGGGACGTGCTAG`, the log fluorescence was 14.2 z-score.
`GACGGAGTGGGACTGGGGACGTGCTAG` has a log fluorescence of -0.618 z-score.
The log fluorescence of `TAAGGTATCGGTCTCGGTTAGTGCTAG` is reported as 2.3 z-score.
`TCAGCTTTCTCTTTCATACTGTGCTAG` has a log fluorescence of 0.808 z-score.
`GACGGTTTCGACTATGGGGACGTGCTA` has a log fluorescence of 4.63 z-score.
With `GACGGTCGCCTACTGCTGACGTGCTAG` the log fluorescence was -0.846 z-score.
`GACGAGTTCAGTATCGAGACGTGCTAG` gave a log fluorescence of 0.445 z-score.
The log fluorescence of `TTAGATATCGGGTTTAGATTAGTGCTA` is reported as 0.371 z-score.
`TTAGGACTGGGTTTTCGGTTAGTGCTA` has a log fluorescence of 1.55 z-score.
`GAATTTCCCACTTTCACTTCGTGCTAG` has a log fluorescence of 5.66 z-score.
With `GACGGTTTCGACTTTGGGGACGTGCTA` the log fluorescence was 9.72 z-score.

Series 3 — method: RNA Bind-n-Seq; form: RNA; sample: in vitro; concentration: 365 nM; baseline: no-protein control; direction: higher = stronger binding
Target: RNA binding protein fox-1 homolog 2, RRM domain, GST-SBP tag (RBFOX2, Homo sapiens, UniProt O43251-10, residues 100-194)
Setting: natural RNA segment, single round, ends assumed
Shared flanks, not repeated: GGGAGUUCUACAGUCCGACGAUC … UGGAAUUCUCGGGUGCCAA
Residues (chain): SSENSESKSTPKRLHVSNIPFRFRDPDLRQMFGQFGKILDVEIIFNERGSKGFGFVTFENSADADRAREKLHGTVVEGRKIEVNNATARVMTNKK
`UUUUGACAGAAAUAUAUUUGCUAAUAUAUUAUAUGUAAAAUAUUUAAUAUCAAAAGAAAUUUGAUAUUUUUGUAAGAAUUUCCUGAGUACAAUGCUUUAUUGAAAAGCUU`: “RBNS enrichment (R)” 0.775.
Under “RBNS enrichment (R)”, `CUACAUACUAAAUCUCUCUCCUUUUUUAAUUUUAAUAUUUGUUAUCAUUUAUUUAUUGGUGCUACUGUUUAUCCGUAAUAAUUGUGGGGGAAAAAGAUAUUAACAUCACG` is recorded as 0.811.
`CUUCAUAAAAAUCUGACCAAUCUACUAAAAUACUGCAGGCGUGAAAGGUUCUGUUGGAGCUGAAUGUCAUGAUGUUUAUCAUCCAGCAAGCCCUCCUUCUCACAUAGCAA`: “RBNS enrichment (R)” 0.424.
`UGAAUCAGUAGCUGUGAAAAUAACUGUCACCACAAAAUUACUGUCAUCGAACAUUGACGCAGGUGAUGCUACUCUGGAAGGACCUCAGGGCAGCCAGGUGUGCGUGUCUU` — result for “RBNS enrichment (R)”: 0.474.
Under “RBNS enrichment (R)”, `GCCCAGAUUUCUCUUGACACCAGAAGAUGCUGAGCAAUGGUGUCAAAGGACCAGCUCCACACUGCCCCCUGCAGUUGAAUAGUGGACAGUAGCUGGUGUGACUGAACAGC` is recorded as 0.261.
`CUGCCACAGACAUCCCACAAAGCCGCUGCCAUUUUAUUAAAGUGUUUUGAUCCACUUUGCACUGGAAUGAGAGGAUCUGUGUAAGGCACUUUCCAGGGAAGGCUGGGGAC`: “RBNS enrichment (R)” 0.57.
`CUUAGAGAAAUUAAGAGGUAUCUUUGAUGUAUCUACCAGUAUUCAAUAGUAACAUUUACCUGUCCACUGUGAAUCAAAGCCUGGGGCACGCUACUCAACCUUAGACACAC` — result for “RBNS enrichment (R)”: 0.389.
Under “RBNS enrichment (R)”, `GCUUGAAAAUUGAUAUCCUGUGGUGCUAAAGUACAGUAGAAAGAGAGGAGAAGUGUAUACAUGUUUUAUUUUAAAUUGUACGAAAGGGGAAUUUAAAAAAUAUGUAACUG` is recorded as 0.471.
Under “RBNS enrichment (R)”, `GGCAAAUUCUUGCUAUGUAACUCAGGCUGGCAUCAAAGUCUUAGUCUUUCUGUUGCUGGUUAUUGAGUGUUGAAAUUAUUGACCAAAAACCUUUCUUUAGUGAAUGUCAA` is recorded as 0.485.

Series 4 — method: RNA Bind-n-Seq; form: RNA; sample: in vitro; concentration: 1 µM; setting: whole 134-nt RNA, ends assumed; together with: 150 mM KCl; baseline: input library; direction: higher = stronger binding
Target: Ras GTPase-activating protein-binding protein 1, C-terminal RGG region (G3BP1, Homo sapiens, UniProt Q13283)
UniProt Q13283, sequence (whole entry, looked up): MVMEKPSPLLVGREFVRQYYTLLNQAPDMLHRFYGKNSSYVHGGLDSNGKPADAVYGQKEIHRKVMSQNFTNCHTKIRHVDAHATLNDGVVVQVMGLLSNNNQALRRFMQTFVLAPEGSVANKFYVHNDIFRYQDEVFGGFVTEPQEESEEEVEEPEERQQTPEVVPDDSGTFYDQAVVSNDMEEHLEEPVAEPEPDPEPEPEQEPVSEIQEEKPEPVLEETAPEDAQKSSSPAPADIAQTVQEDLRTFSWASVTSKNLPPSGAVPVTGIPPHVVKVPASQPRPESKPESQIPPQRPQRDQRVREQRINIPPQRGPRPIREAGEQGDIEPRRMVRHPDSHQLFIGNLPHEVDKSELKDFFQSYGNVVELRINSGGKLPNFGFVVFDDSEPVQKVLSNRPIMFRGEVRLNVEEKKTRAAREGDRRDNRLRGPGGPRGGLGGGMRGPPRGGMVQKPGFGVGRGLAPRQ
Shared flanks, not repeated: GGGAGUUCUACAGUCCGACGAUC … UGGAAUUCUCGGGUGUCAAGG
The log2 enrichment of `CUCAAGUCCUGUGCUACACAUCGUAUGUACCGAAUCGGGUGGGUGGGUUUGGGAAAGUAUUAUGUUACGCCGUUCGGAUCUGCACUUCCA` is reported as 1.7.
The log2 enrichment of `UUAUUGAACUGACAAGGUCCUCCCUGUGUUGUAGCAAGGACCAGACUGGCUUGAGCUCUCUGAGAUGACCGAGCAGCCAGACUAUGACCU` is reported as 0.0655.
`UGGGAGGUGGGUUUUGUUUAUUUUUUUAGCUCAUUUCCAGGGGUGGGAAUUUUUUUUUAAUAUGUGUCAUGAAUAAAGUUGUUUUUGAAA` has a log2 enrichment of 2.67.
The log2 enrichment of `CACAGACAACACGCACCCACACAGACACAGAGGGAAGGUGUUGGGAUGGGGACAGGGUGCACAGCAGGGCGGGGUAGGACCCCAGCCCCU` is reported as -0.653.
For `CCUCAAGUCCUGUGCUACACAUCGUAUGUACCGAAUCGGGCGGGCGGGGCGGGAAAGUAUUAUGUUACGCCGUUCGGAUCUGCACUUCCA`, the log2 enrichment was 2.25.
With `UAACUUUAGAGGAGGAUCUUAUGGAUAUGGCAGUGGACGUGGAUUUGGGGAUGGCUAUAAUGGGUAUGGAGGAGGACCUGGAGGUGGCAA` the log2 enrichment was -1.21.
With `CCUCAAGUCCUGUGCUACACAUCGUAUGUACCGAAUCGGGGUGGGUGGUGGGGAAAGUAUUAUGUUACGCCGUUCGGAUCUGCACUUCCA` the log2 enrichment was 0.704.
The log2 enrichment of `ACCAUGCAAAAGGGCAUCUUUGGGAAGUGGGGCAAGGGGGGGAUAGGGAGGGGGGUAACACUUUGGGAACAGGUGGUCCCAGGUCGUUUC` is reported as -1.11.
The log2 enrichment of `CUCAAGUCCUGUGCUACACAUCGUAUGUACCGAAUCGGGGCCGGGGCCGGCCGGAAAGUAUUAUGUUACGCCGUUCGGAUCUGCACUUCC` is reported as -1.35.
With `CCUCAAGUCCUGUGCUACACAUCGUAUGUACCGAAUCGGCGGCGGGGCGGGGAAAGUAUUAUGUUACGCCGUUCGGAUCUGCACUUCCAG` the log2 enrichment was -0.421.

For quick reference, copied from above (series 4):
The log2 enrichment of `CUCAAGUCCUGUGCUACACAUCGUAUGUACCGAAUCGGGUGGGUGGGUUUGGGAAAGUAUUAUGUUACGCCGUUCGGAUCUGCACUUCCA` is reported as 1.7.
With `UAACUUUAGAGGAGGAUCUUAUGGAUAUGGCAGUGGACGUGGAUUUGGGGAUGGCUAUAAUGGGUAUGGAGGAGGACCUGGAGGUGGCAA` the log2 enrichment was -1.21.
For `CCUCAAGUCCUGUGCUACACAUCGUAUGUACCGAAUCGGGCGGGCGGGGCGGGAAAGUAUUAUGUUACGCCGUUCGGAUCUGCACUUCCA`, the log2 enrichment was 2.25.
The log2 enrichment of `CACAGACAACACGCACCCACACAGACACAGAGGGAAGGUGUUGGGAUGGGGACAGGGUGCACAGCAGGGCGGGGUAGGACCCCAGCCCCU` is reported as -0.653.
